Results gathered from unrelated publications.
lasR: Transcriptional activator protein LasR (lasR, Pseudomonas aeruginosa, UniProt P25084)
UniProt P25084, sequence (whole entry, looked up): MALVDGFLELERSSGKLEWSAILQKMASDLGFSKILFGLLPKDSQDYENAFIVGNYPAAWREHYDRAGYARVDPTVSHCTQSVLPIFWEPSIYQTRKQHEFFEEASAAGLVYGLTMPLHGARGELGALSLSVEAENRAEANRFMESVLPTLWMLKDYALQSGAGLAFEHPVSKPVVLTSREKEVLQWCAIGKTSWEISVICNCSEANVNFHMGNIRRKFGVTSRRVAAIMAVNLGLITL
UniProt Q92918, sequence (whole entry, looked up): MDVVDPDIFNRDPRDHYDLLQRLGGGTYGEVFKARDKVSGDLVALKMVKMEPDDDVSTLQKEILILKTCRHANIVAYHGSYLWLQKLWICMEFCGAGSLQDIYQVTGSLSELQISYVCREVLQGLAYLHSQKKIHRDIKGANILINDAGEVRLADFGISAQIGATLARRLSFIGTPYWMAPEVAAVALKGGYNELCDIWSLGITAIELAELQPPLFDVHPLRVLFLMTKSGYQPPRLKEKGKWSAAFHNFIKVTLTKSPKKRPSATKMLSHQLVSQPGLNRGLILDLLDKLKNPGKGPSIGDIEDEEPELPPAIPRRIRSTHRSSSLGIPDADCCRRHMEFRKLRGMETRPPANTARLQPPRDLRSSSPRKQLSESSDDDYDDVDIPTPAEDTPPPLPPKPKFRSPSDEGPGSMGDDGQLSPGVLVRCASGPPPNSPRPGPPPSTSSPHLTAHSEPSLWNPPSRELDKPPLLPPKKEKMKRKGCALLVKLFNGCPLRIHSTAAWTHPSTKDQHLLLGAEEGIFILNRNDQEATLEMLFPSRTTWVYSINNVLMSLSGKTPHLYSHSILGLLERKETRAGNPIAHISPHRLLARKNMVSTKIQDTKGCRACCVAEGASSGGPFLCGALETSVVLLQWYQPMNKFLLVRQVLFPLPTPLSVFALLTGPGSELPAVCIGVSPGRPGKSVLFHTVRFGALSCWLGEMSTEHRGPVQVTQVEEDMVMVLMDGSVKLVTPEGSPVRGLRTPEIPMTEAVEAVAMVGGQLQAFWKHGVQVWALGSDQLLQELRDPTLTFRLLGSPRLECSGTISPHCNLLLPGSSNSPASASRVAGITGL
UniProt Q9GZV3, sequence (whole entry, looked up): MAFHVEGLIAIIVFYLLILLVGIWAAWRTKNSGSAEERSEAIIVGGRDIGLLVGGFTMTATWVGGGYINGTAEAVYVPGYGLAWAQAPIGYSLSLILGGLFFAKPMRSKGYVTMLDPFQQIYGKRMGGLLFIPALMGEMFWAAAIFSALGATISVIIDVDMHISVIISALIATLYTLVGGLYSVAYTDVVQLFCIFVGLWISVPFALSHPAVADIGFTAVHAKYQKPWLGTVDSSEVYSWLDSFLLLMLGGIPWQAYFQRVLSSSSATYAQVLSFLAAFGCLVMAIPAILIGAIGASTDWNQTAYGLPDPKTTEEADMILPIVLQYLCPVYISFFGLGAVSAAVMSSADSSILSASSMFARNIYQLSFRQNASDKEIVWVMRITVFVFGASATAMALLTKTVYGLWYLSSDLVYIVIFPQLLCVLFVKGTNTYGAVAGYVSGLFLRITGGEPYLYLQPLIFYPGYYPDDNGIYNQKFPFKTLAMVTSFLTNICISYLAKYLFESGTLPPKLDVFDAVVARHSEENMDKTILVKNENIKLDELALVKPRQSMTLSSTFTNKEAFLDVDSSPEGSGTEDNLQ
UniProt P43140, sequence (whole entry, looked up): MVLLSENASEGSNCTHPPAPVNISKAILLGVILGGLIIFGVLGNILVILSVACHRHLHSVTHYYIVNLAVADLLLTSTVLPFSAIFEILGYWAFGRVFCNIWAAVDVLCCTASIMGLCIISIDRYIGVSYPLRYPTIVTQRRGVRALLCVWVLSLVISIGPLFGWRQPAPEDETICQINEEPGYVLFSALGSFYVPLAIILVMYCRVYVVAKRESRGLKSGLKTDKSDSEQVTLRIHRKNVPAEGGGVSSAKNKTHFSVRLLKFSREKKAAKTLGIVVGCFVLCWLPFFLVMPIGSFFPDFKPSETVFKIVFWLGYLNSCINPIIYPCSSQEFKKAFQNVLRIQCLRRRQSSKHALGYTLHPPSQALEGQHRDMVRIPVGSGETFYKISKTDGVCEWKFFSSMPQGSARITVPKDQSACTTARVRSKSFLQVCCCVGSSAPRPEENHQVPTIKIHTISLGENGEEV
UniProt P08913, sequence (whole entry, looked up): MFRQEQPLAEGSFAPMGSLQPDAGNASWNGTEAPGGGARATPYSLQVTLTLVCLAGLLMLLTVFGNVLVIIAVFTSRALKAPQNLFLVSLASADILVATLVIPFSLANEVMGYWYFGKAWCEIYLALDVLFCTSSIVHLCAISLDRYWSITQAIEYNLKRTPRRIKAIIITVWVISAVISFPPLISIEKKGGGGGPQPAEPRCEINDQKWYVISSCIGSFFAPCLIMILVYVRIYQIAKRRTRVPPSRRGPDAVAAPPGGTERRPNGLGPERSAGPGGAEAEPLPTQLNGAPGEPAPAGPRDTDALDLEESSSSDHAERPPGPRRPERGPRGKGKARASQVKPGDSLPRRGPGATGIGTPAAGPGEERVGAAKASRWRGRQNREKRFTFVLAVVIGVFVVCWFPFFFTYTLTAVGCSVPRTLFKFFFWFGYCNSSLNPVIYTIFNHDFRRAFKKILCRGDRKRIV
UniProt Q2FDS6, sequence (whole entry, looked up): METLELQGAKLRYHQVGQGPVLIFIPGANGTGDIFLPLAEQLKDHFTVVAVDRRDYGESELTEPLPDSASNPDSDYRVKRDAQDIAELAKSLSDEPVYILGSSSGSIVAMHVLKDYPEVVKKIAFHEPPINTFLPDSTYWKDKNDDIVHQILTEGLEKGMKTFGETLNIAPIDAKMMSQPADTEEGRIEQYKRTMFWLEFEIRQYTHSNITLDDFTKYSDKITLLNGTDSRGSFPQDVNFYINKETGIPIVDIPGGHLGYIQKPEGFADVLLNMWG
UniProt O94921, sequence (whole entry, looked up): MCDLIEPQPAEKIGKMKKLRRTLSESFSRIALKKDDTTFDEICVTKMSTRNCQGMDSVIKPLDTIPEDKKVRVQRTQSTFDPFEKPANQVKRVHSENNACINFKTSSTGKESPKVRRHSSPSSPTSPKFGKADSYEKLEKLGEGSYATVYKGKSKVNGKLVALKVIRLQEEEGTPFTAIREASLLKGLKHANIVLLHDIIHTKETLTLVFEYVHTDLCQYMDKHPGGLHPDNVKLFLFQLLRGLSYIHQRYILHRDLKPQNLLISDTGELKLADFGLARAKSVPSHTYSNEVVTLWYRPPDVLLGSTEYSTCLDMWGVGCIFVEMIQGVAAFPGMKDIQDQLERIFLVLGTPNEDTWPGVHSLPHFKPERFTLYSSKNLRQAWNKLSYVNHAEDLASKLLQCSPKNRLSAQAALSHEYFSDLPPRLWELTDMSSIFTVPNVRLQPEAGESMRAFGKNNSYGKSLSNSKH
UniProt Q08499, sequence (whole entry, looked up): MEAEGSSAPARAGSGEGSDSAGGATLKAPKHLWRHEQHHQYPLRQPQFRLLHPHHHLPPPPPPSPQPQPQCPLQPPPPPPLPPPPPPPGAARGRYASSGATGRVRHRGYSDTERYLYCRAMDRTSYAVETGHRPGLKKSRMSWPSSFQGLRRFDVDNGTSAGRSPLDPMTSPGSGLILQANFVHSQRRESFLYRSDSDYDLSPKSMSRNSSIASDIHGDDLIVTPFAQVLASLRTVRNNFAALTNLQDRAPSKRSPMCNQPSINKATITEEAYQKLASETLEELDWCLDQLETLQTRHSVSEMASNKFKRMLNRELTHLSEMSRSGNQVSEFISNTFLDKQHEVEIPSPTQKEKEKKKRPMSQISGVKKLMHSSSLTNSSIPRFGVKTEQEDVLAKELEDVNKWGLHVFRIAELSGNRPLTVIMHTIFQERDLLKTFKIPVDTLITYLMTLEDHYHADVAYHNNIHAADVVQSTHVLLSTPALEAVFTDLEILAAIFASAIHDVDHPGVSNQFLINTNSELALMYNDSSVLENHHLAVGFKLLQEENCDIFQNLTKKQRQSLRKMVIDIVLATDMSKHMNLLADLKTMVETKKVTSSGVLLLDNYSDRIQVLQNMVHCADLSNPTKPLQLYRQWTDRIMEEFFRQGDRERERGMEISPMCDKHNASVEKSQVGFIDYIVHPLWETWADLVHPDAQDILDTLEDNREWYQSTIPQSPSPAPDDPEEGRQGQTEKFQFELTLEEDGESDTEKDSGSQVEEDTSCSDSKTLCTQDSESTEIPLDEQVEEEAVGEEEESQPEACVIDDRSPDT
UniProt Q96SB4, sequence (whole entry, looked up): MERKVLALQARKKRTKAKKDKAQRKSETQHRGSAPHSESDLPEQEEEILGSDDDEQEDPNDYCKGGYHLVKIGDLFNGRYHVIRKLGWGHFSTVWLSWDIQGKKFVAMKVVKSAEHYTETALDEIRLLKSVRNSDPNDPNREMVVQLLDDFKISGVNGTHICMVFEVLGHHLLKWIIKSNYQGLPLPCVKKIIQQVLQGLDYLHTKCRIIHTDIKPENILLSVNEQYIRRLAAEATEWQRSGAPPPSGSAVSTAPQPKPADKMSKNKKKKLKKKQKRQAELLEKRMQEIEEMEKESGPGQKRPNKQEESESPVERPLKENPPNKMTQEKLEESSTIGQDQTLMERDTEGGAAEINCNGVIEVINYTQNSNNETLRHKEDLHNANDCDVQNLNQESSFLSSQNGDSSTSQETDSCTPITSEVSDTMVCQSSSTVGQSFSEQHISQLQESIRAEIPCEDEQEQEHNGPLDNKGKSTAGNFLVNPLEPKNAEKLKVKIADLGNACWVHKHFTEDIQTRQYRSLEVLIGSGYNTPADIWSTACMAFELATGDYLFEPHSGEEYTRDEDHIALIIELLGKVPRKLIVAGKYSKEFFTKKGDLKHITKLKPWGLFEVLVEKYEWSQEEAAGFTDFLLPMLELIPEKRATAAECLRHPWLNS

`O=C(CN1CN(c2ccccc2)C2(CCN(C(=O)c3cnc4[nH]ncc4c3)CC2)C1=O)NCC(F)(F)F` gave an inhibition of under 50% (Cyclin-dependent kinase 14 (CDK14, Homo sapiens, UniProt O94921); inhibitor; concentration not given).
The inhibition of `CCCCCCCCCNC(=O)CC(=O)c1ccccc1` is reported as 83% (lasR; reporter gene, antagonist; Pseudomonas aeruginosa PAO-JP2; 100 µM, plasI-LVAgfp reporter, with: OdDHL 150 nM).
For `COc1ccc(F)cc1S(=O)(=O)Nc1cnc2c(c1)C(=O)NCCO2`, the inhibition was -6% (Cathepsin G (CTSG, Homo sapiens, UniProt P08311); enzyme activity, inhibitor; 10 µM).
`Cc1ccsc1CNc1ccccc1OC1CC(=O)N1` (stereo not drawn) has an inhibition of 52.2% (Uncharacterized hydrolase SAUSA300_2518 (Staphylococcus aureus, UniProt Q2FDS6); enzyme activity, inhibitor; 50 µM).
`COc1ccc2c(c1O)-c1c(O)c(OC)cc3c1[C@H](C2)[N+](C)(C)CC3` gave an inhibition of 81.9% (3',5'-cyclic-AMP phosphodiesterase 4D (PDE4D, Homo sapiens, UniProt Q08499); enzyme activity, inhibitor, radiometric; 50 µM).
For `C[C@H](NCc1ccc(-c2ccc(C(F)(F)F)cc2)cc1)C(N)=O`, the inhibition was 5% (Alpha-1A adrenergic receptor (Adra1a, Rattus norvegicus, UniProt P43140); radioligand binding, SafetyScreen panel; 1 µM, species rat, with: 0.25 nM [3H]Prazosin).
`O=C(O)c1ccccc1/C=N/Nc1nc(-c2ccccc2Cl)cs1` gave an inhibition of -2.47% (Mitogen-activated protein kinase kinase kinase kinase 1 (MAP4K1, Homo sapiens, UniProt Q92918); enzyme activity, inhibitor; 1 µM).
For `CCc1nnc(-c2c(OC)cc(-c3cnc4cc(-c5cnn(C)c5)ccn34)cc2OC)o1`, the inhibition was -7% (Alpha-2A adrenergic receptor (ADRA2A, Homo sapiens, UniProt P08913); antagonist radioligand, radioligand binding; 10 µM, SafetyScreen44 alpha 2 A).
For `CN(/N=C/c1ccccc1C(=O)O)c1nc(-c2ccccc2Cl)cs1`, the inhibition was 9.35% (Death-associated protein kinase 1 (DAPK1, Homo sapiens, UniProt P53355); kinase activity; 1 µM, mean).
`C=CC(=O)Nc1cc(-c2nn(C3CCC(N4CCN(C(C)=O)CC4)CC3)c3ncnc(N)c23)ccc1Oc1ccccc1` (stereo not drawn) gave an inhibition of -1.7% (SRSF protein kinase 1 (SRPK1, Homo sapiens, UniProt Q96SB4); inhibitor, KiNativ profiling; biochemical; 2 µM).
The inhibition of `N[C@H](C(=O)N1CCCC1)C1CCN(c2nccc3c(-c4ncc(Cl)cc4Cl)cccc23)CC1` is reported as 58% (High affinity choline transporter 1 (SLC5A7, Homo sapiens, UniProt Q9GZV3); ligand displacement; 10 µM).
`O=C1c2ccccc2CCCN1CCCCN1CCN(c2cccc(Cl)c2Cl)CC1` has an inhibition of 65.1% (5-hydroxytryptamine receptor 1E (HTR1E, Homo sapiens, UniProt P28566); radioligand binding; concentration not given, with: [3H]5-HT).
For `CC(C)(C)C1CCC(c2cc3ccccc3s2)(N2CCCCC2)CC1` (stereo not drawn), the inhibition was 23.5% (Uncharacterized protein (Trypanosoma brucei brucei, UniProt Q386Q8); enzyme activity, inhibitor, coupled colorimetric; 30 µM, with: E. coli pyrophosphatase coupling).
With `O=C(CCCCCCCCCN=C=S)CC(=O)N[C@H]1CCOC1=O` the inhibition was -74% (lasR; reporter gene, antagonist; Pseudomonas aeruginosa PAO-JP2; 100 µM, plasI-LVAgfp reporter, with: OdDHL 150 nM).
The inhibition of `CS(C)(=O)=Nc1ccc(-c2ccc(-c3nc4cc(O[C@@H]5CO[C@H]6[C@@H]5OC[C@H]6O)[nH]c4cc3F)cc2)cc1` is reported as 13% (Homeodomain-interacting protein kinase 2 (HIPK2, Homo sapiens, UniProt Q9H2X6); enzyme activity, inhibitor; 10 µM).
With `CCCCCCCCCC(=O)CC(=O)Nc1ccccc1` the inhibition was -4% (lasR; reporter gene, antagonist; Escherichia coli JLD271; 10 µM, pSC11 and pJN105L plasmids, with: OdDHL 2 nM).
`CC(C)[C@H]1NC(=O)C[C@H]2/C=C/CCSSC[C@@H](NC1=O)C(=O)N[C@H](Cc1cccc3ccccc13)C(=O)NCC(=O)O2` gave an inhibition of -0.346% (Calcium/calmodulin-dependent protein kinase type IV (CAMK4, Homo sapiens, UniProt Q16566); enzyme activity, inhibitor; 10 µM).
The inhibition of `CN(C)[C@H]1C[C@@]23CC[C@@]4(O2)C(=CC[C@]2(C)[C@@H](c5ccc6ccncc6c5)CC[C@H]24)C=C3[C@@H](O)[C@@H]1O` is reported as -4.6% (RAF proto-oncogene serine/threonine-protein kinase (RAF1, Homo sapiens, UniProt P04049); ATP probe labelling, inhibitor, KiNativ profiling; 1 µM).

Some of these lines once more:
For `COc1ccc(F)cc1S(=O)(=O)Nc1cnc2c(c1)C(=O)NCCO2`, the inhibition was -6% (Cathepsin G (CTSG, Homo sapiens, UniProt P08311); enzyme activity, inhibitor; 10 µM).
`Cc1ccsc1CNc1ccccc1OC1CC(=O)N1` (stereo not drawn) has an inhibition of 52.2% (Uncharacterized hydrolase SAUSA300_2518 (Staphylococcus aureus, UniProt Q2FDS6); enzyme activity, inhibitor; 50 µM).
